Assay results collected from several papers.
Every numbered part comes from another study and shows a few of its results, in no order. Substitutions count along the parent as printed.

Study 1
Target: ABI1, truncated, D143A, DHFR fusion (Arabidopsis thaliana)
Method: DHFR PCA, deep sequencing
Sample: yeast
Notes: methotrexate growth selection, single substitutions
With: (+)-ABA 710 µM
Reference: wild-type fitted maximum
Direction: higher = stronger binding
Parent: PYL1, truncated, DHFR fusion (Arabidopsis thaliana); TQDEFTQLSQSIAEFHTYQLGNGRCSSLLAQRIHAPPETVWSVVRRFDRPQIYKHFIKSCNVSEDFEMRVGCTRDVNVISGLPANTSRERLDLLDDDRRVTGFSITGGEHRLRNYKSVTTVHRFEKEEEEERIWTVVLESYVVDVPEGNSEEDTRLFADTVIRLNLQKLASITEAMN; partner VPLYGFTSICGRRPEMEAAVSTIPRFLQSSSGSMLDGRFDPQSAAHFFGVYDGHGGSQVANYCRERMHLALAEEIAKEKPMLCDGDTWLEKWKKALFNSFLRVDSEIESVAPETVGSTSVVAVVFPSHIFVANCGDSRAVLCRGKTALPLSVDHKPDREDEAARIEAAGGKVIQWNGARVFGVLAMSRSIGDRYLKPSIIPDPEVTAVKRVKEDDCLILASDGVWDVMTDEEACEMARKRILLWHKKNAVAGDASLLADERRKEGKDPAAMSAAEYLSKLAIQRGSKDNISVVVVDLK
Change	relative binding score [%]
L93H	110
Y53A	72.5
V121S	13
Y115W	80.1
T119A	71
S171K	101
C25W	53
R132T	115

Study 2
Target: Sal-like protein 4, full length isoform A (SALL4, Homo sapiens, UniProt Q9UJQ4, residues 1-1053)
Sequence of UniProt Q9UJQ4 (whole entry, looked up): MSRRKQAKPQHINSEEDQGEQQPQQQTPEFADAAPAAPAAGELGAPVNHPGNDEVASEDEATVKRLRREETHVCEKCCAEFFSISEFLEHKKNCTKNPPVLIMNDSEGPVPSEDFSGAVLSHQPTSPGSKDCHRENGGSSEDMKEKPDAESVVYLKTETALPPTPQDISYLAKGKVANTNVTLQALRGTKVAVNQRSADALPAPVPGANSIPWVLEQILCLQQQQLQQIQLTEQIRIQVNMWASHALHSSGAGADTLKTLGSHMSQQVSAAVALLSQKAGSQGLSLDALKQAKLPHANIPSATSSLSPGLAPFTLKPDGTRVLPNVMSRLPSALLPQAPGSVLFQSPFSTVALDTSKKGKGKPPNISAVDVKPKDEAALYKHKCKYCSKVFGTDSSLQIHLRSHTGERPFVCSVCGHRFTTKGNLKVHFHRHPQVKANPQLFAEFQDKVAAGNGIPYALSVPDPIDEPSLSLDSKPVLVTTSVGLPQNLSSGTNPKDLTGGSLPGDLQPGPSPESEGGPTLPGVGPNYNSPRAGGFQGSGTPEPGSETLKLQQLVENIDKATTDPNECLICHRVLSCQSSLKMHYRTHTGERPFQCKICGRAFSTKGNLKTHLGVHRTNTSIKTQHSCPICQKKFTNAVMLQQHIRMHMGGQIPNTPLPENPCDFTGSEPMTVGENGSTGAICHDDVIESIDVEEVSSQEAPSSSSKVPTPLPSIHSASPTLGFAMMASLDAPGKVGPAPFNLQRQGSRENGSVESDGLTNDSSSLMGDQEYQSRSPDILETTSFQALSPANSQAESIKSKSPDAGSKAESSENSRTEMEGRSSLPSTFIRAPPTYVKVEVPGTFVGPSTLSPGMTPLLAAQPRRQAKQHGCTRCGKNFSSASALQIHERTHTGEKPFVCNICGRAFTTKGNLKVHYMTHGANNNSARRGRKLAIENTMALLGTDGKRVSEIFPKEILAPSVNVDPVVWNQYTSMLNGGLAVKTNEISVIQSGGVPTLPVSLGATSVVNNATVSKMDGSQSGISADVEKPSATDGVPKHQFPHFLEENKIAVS
Method: universal PBM
Molecule type: double-stranded DNA, one strand shown
Sample: in vitro
Concentration: 600 nM
Notes: 8-mer, flanks averaged, mean of replicates
Direction: higher = stronger binding
Strand	E-score
ATGGAAGA	0.244
CCTACGAG	-0.144
CACTACAG	-0.0162
AGGAGCGA	-0.0458
TGGATCCA	0.124
ATCGCTTA	-0.00697
GTGAAGGA	0.0828

Study 3
Target: Ras GTPase-activating protein-binding protein 1, full length (G3BP1, Homo sapiens, UniProt Q13283)
Sequence of UniProt Q13283 (whole entry, looked up): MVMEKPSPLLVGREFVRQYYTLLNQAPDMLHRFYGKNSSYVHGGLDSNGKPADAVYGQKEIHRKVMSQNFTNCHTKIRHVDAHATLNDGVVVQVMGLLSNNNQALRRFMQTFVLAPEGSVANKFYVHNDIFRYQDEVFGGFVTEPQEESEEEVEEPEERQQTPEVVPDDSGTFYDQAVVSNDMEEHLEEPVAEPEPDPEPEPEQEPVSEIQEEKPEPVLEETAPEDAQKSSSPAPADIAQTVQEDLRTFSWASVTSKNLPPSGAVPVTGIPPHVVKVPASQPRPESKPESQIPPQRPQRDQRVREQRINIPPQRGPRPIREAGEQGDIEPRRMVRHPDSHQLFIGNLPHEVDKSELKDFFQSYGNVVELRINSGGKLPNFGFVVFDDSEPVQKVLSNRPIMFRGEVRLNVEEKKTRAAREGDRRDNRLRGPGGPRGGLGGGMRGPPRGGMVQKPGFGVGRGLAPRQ
Method: RNA Bind-n-Seq
Molecule type: RNA
Sample: in vitro
Concentration: 200 nM
Notes: whole 134-nt RNA, ends assumed
With: 150 mM LiCl
Reference: input library
Direction: higher = stronger binding
Each molecule: 7-deaza-guanosine replaces G
Strand	log2 enrichment
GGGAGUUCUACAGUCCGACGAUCAGUCCUGUGCUACACAUCGUAUGUACCGAAUCGGGGUGGGGUUUGGGGUUUUUGGGGAAAGUAUUAUGUUACGCCGUUCGGAUCUGCACUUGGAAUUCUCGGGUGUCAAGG	-0.417
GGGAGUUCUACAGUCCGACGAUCGUCCUGUGCUACACAUCGUAUGUACCGAAUCAAAUUUUUAAACCCCCAAACCCCCAAAAAAGUAUUAUGUUACGCCGUUCGGAUCUGCACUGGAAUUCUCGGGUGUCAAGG	0.59
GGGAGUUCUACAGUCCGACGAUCAAGUCCUGUGCUACACAUCGUAUGUACCGAAUCGGGUGGGAAAAAGGGUUUUUGGGAAAGUAUUAUGUUACGCCGUUCGGAUCUGCACUUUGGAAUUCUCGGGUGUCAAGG	-1.16
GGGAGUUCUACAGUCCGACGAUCUCCUGUGCUACACAUCGUAUGUACCGAAUCAAAUUUAAAUUUUUUUAAAUUUUUUUAAAAAAGUAUUAUGUUACGCCGUUCGGAUCUGCAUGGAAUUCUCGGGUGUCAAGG	-2.57
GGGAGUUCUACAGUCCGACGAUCAAGUCCUGUGCUACACAUCGUAUGUACCGAAUCGGAAAGGAAAAAGGUUUUUUUGGAAAGUAUUAUGUUACGCCGUUCGGAUCUGCACUUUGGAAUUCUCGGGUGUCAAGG	-1.59
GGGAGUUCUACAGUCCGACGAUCCUCAAGUCCUGUGCUACACAUCGUAUGUACCGAAUCGGGAAAGGAAAGGAAAGGAAAGUAUUAUGUUACGCCGUUCGGAUCUGCACUUCCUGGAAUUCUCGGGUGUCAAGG	-0.386
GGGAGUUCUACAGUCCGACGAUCCACAGACAACACGCACCCACACAGACACAGAGGGAAGGGAUUGGGAUGGGGACAGGGUGCACAGCAGGGCGGGGUAGGACCCCAGCCCCUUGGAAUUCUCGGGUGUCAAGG	-0.749
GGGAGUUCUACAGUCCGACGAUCUGGCCCUGGUGGCAUGCGGGGAGGAAGAGGUGGCCUCAUGGAUCGUGGUGGUCCCGGGGGAAUGUUCAGAGGUGGCCGUGGUGGAGACAGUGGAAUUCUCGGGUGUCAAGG	-0.252
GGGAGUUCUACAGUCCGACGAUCCCUCAAGUCCUGUGCUACACAUCGUAUGUACCGAAUCGGAAAGGAGGUUUGGAAAGUAUUAUGUUACGCCGUUCGGAUCUGCACUUCCAGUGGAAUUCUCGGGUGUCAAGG	-0.731
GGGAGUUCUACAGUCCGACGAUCAAGUCCUGUGCUACACAUCGUAUGUACCGAAUCGGAAAGGUUUUUUUGGAAAAAGGAAAGUAUUAUGUUACGCCGUUCGGAUCUGCACUUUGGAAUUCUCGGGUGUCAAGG	-1.63
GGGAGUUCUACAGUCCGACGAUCUGGUAGGUGGAUUUUGUUUAUUUUUUUAGCUCAUUUCCAGGGGUGGGAAUUUUUUUUUAAUAUGUGUCAUGAAUAAAGUUGUUUUUGAAAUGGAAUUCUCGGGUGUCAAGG	0.455

Other studies, line by line
Molecule	target	test	system	setting	how to read	measurement	value
PhoQ, residues 284 288 289 292 302 303 HSSMNL	PhoP, residues 12 14 15 18 19 LYFRQ (Escherichia coli, UniProt P23836)	Sort-seq, measured: YFP reporter	E. coli	PhoQ-PhoP variant library, with: 10 µM Mg2+	reference: high Mg2+ state, higher = stronger signaling	fold induction	8.28

Repeated from above (study 3):
Strand	log2 enrichment
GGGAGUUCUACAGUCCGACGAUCCUCAAGUCCUGUGCUACACAUCGUAUGUACCGAAUCGGGAAAGGAAAGGAAAGGAAAGUAUUAUGUUACGCCGUUCGGAUCUGCACUUCCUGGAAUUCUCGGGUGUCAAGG	-0.386
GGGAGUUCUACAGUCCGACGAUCCACAGACAACACGCACCCACACAGACACAGAGGGAAGGGAUUGGGAUGGGGACAGGGUGCACAGCAGGGCGGGGUAGGACCCCAGCCCCUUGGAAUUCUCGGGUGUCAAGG	-0.749
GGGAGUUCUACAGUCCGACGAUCUGGCCCUGGUGGCAUGCGGGGAGGAAGAGGUGGCCUCAUGGAUCGUGGUGGUCCCGGGGGAAUGUUCAGAGGUGGCCGUGGUGGAGACAGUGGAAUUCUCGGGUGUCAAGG	-0.252
